Results gathered from unrelated publications.
“And” joins repeats or separate records; there may be more than shown.
Target: Myotonin-protein kinase (DMPK, Homo sapiens, UniProt Q09013)

NC(=O)C[C@H]1CCc2sc3ncnc(O[C@H]4CC[C@H](N5CCOCC5)CC4)c3c21  inhibition (enzyme activity, inhibitor; 10 µM): 2%
CNC(=O)C[C@H](Cc1ccc(C#N)cc1)NC(=O)c1cc(-c2ccc(CN[C@H](C)c3ccc(C)cc3)o2)ccc1Cl  activity vs control (enzyme activity, inhibitor; 1 µM): 104%
CN1CCN(Cc2ccc(-c3ccc(CO[C@H]4CCC[C@@H]4NC(=O)c4cc(-c5cnn(C)c5)cnc4N)cc3)cc2)CC1  inhibition (enzyme activity, inhibitor; 0.1 µM): 6%
Cc1nc2c(F)cc(-c3nc(Nc4ccc(CNC(=O)CCCCCCC(=O)NO)cc4)ncc3F)cc2n1C(C)C  inhibition (enzyme activity, inhibitor; 1 µM): 23%
CCN1CCN(Cc2ccc(C(=O)Nc3ccc(C)c(NCc4cnc5[nH]ccc5c4OC)c3)cc2C(F)(F)F)CC1  remaining binding (binding, competition with immobilised ligand; 1 µM): 96%
COc1ccc(NC(=O)Nc2ccc3c(c2)C(=O)N(C(C)CO)CC(C)C(CN(C)Cc2ccc4c(c2)OCO4)O3)cc1 (centres unmarked)  remaining activity (kinase activity, KinaseProfiler; 0.03 µM, species human; baseline: control): 111%
COc1cc(Nc2nccc(-c3cnn4nc(OC)ccc34)n2)cc(C(F)(F)F)c1  remaining binding (binding, competition with immobilised ligand; 1 µM): 100%
COc1c(OCCCN2CCOCC2)ccc2c1N=C(NC(=O)c1cnc(N)nc1)N1CCN=C21  remaining activity (kinase activity, inhibitor; 1 µM; baseline: untreated control): 111%
O=C=[N][Ru-4]123([n]4c5ccc(O)cc5c5c6c(c7cc(F)c[n+]1c7c54)C(=O)NC6=O)[S+]1CC[S+]2CC[S+]3CC1 (centres unmarked)  remaining activity (enzyme activity; 100 nM, human enzyme, with: 10 µM ATP; baseline: untreated): 110%
COc1c(Cl)cccc1Nc1c(-c2ccncc2C#C[C@@]2(C)CCCN2C(=O)/C=C/CN(C)C)[nH]c2c1C(=O)NCC2  remaining binding (binding, competition with immobilised ligand; 3 µM): 98%
Cc1cnc2nc1Nc1cccc(c1)COC/C=C/COCc1cc(ccc1OCCN1CCOCC1)N2  remaining binding (binding; 0.1 µM): 100%
Cc1ccc(-c2c(/C=C(\C#N)C(=O)NC(C)C)n(CCCO)c3ncnc(N)c23)cc1  remaining binding (cell-free assay, competition with immobilised ligand; 1 µM): 100%
CC(C)=CC1OC(C)(C)C2C=C3C(=O)C(Cl)=CC(O)C3C3C(O)C4OC4C(=O)C132 (centres unmarked)  remaining binding (cell-free assay, competition with immobilised ligand; 10 µM): 90%
COCC12C(=O)NC3C4(C(OC)CC1O)C1CC5(O)C(OC)C(O)C(OC(C)=O)(C1C5OC(=O)c1ccccc1)C3(O)C(OC)C24 (centres unmarked)  remaining activity (kinase activity, inhibitor, ProQinase kinase profiling; 25 µM; baseline: control): 112% and 106%
